# Measurements from different studies.
# Numbered parts are unrelated; each lists some results of a single study.
# Chain of UniProt Q8NEV4 (whole entry, looked up): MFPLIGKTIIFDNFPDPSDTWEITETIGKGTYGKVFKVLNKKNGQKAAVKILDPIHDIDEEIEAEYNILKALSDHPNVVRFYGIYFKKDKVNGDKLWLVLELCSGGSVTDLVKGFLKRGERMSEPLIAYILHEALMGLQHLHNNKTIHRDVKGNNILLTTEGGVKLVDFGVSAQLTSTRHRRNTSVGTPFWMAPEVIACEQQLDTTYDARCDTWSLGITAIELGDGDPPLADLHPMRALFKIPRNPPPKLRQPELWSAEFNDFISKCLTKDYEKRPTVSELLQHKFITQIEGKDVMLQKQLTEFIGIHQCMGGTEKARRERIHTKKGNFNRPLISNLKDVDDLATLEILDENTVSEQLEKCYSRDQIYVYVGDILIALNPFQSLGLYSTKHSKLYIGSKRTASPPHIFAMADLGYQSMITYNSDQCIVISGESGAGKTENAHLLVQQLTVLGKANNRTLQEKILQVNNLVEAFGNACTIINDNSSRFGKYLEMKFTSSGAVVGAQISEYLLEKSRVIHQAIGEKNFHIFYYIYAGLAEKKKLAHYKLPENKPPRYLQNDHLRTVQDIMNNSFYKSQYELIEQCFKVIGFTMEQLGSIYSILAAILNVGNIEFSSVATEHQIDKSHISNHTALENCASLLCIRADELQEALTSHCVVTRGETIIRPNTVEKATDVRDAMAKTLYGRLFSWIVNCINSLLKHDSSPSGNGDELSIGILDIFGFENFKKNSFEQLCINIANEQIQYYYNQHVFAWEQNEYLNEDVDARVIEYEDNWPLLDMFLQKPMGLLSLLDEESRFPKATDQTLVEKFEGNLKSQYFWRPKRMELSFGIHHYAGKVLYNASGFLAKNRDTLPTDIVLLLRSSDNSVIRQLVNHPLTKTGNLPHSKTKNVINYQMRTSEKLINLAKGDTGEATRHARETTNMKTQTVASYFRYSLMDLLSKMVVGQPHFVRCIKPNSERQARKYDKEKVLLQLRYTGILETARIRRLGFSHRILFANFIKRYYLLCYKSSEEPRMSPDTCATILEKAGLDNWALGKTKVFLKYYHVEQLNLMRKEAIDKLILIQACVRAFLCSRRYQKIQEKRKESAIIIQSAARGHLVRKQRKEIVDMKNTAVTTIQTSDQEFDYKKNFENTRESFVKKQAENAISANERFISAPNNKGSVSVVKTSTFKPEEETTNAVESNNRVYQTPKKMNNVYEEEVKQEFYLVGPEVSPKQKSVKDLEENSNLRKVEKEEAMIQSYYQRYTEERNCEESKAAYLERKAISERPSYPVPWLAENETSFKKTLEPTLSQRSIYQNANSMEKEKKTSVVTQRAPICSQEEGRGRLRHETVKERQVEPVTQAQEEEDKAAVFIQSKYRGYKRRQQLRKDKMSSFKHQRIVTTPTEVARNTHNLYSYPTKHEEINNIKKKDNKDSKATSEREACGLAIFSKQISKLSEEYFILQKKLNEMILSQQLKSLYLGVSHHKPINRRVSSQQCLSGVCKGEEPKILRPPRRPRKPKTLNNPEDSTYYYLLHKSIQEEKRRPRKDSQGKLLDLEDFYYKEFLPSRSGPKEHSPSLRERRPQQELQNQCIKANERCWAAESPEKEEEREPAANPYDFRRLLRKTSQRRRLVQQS
# Chain of UniProt Q9P1W9 (whole entry, looked up): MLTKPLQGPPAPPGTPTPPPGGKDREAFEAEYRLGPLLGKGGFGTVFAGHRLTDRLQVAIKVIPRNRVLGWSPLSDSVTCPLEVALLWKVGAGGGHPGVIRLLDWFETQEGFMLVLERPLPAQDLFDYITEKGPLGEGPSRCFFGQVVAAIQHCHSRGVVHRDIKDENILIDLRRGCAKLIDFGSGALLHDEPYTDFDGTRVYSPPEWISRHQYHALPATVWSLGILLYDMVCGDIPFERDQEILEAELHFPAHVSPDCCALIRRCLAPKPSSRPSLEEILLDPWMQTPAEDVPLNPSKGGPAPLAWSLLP
# Chain of UniProt P19784 (whole entry, looked up): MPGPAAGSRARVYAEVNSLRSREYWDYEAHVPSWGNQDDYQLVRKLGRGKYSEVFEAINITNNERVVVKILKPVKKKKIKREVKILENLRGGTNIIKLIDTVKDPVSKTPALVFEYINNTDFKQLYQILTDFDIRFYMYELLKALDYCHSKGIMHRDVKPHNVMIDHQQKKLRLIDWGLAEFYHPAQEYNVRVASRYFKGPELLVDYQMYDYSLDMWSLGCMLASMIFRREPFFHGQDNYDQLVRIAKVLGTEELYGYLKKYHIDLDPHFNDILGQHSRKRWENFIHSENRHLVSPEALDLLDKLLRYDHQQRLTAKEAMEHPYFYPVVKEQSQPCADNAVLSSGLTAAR
# Chain of UniProt Q9HBY8 (whole entry, looked up): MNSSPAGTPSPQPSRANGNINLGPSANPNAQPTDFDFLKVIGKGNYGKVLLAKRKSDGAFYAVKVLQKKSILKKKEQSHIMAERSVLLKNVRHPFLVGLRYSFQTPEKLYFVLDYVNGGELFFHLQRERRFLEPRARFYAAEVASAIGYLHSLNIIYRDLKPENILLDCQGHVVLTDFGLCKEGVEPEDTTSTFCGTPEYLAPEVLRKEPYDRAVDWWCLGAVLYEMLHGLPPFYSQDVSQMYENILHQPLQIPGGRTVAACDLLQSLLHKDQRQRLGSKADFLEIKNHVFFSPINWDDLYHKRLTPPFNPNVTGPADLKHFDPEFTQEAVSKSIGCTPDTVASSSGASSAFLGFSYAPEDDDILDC
# Chain of UniProt Q7L7X3 (whole entry, looked up): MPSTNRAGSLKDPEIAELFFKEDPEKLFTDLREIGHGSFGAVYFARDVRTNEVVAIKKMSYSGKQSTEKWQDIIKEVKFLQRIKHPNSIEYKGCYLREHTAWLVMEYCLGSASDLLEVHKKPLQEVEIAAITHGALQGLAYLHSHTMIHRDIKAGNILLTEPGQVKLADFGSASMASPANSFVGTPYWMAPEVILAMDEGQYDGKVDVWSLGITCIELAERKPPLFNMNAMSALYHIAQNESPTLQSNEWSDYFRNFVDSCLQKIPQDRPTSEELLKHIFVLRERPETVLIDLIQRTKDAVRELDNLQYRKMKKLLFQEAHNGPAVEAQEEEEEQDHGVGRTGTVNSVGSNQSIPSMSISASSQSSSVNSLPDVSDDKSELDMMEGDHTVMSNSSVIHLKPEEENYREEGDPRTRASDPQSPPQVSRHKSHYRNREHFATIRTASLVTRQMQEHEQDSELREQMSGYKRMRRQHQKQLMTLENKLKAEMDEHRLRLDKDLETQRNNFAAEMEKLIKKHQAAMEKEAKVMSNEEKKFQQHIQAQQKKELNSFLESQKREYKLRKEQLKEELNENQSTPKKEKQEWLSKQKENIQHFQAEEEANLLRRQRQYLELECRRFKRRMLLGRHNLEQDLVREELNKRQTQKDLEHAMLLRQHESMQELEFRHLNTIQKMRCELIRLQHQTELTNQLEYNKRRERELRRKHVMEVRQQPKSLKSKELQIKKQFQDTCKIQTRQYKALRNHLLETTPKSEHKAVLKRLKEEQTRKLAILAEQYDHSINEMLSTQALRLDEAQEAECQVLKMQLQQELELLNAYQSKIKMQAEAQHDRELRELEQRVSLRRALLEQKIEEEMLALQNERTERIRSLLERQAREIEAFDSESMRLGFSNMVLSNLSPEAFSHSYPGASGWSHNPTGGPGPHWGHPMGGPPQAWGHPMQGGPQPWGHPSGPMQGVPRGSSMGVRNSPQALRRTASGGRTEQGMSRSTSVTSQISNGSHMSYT
# Chain of UniProt Q15139 (whole entry, looked up): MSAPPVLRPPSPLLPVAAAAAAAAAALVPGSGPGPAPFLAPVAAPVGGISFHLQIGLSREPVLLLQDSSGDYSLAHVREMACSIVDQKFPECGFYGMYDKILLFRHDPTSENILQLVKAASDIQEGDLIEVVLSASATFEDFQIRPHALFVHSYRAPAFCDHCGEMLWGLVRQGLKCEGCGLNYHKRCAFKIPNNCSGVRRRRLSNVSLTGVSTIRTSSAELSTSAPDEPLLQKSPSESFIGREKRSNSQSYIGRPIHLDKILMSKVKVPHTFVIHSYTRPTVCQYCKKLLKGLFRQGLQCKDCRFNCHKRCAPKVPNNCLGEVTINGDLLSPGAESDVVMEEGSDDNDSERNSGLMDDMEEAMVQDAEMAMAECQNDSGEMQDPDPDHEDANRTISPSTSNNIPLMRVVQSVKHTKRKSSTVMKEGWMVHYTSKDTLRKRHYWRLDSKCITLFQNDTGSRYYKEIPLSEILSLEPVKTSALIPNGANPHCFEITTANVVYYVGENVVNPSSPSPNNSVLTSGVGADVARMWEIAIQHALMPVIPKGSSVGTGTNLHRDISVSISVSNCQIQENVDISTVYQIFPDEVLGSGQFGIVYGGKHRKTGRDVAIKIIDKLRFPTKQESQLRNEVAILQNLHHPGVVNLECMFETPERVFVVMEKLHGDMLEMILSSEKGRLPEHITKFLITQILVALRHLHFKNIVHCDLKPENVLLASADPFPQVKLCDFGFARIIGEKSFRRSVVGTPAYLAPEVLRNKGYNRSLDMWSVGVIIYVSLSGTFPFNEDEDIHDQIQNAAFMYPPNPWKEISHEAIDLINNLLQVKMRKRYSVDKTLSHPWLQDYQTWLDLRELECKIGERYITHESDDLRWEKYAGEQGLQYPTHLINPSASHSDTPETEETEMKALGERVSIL

# Set 1
# SMILES: O=C(Nc1ccccc1)Nc1cccc(Oc2ccc3nccn3n2)c1
# Tested at: 1 µM
target,technique,setting,together with,relative to,remaining binding
"Calcium-dependent protein kinase 1 (CDPK1, Plasmodium falciparum, UniProt P62344)","competitive binding, scanMAX","Plasmodium falciparum CDPK1, 1000 nM",,,81%
"Epidermal growth factor receptor (EGFR, Homo sapiens, UniProt P00533, L858R/T790M)",competitive binding panel,,,vehicle,100%
"Calcium/calmodulin-dependent protein kinase type 1G (CAMK1G, Homo sapiens, UniProt Q96NX5)",competitive binding panel,,,vehicle,100%
"Tyrosine-protein kinase ABL1 (ABL1, Homo sapiens, UniProt P00519, E255K)",competitive binding panel,,,vehicle,93%
"Serine/threonine-protein kinase WNK2 (WNK2, Homo sapiens, UniProt Q9Y3S1)",competitive binding panel,,,vehicle,100%
"LIM domain kinase 2 (LIMK2, Homo sapiens, UniProt P53671)",competitive binding panel,,,vehicle,100%
"Epidermal growth factor receptor (EGFR, Homo sapiens, UniProt P00533, del746-750)",competitive binding panel,,,vehicle,52%
"Focal adhesion kinase 1 (PTK2, Homo sapiens, UniProt Q05397)",competitive binding,FAK,,,100%
"Epidermal growth factor receptor (EGFR, Homo sapiens, UniProt P00533, del752-759)",competitive binding panel,,,vehicle,91%
"Cyclin-dependent kinase 4 (CDK4, Homo sapiens, UniProt P11802)",competitive binding scan,,cyclin D3,,100%

# Set 2
# Target: Serine/threonine-protein kinase 24 (STK24, Homo sapiens, UniProt Q9Y6E0)
# Chain of UniProt Q9Y6E0 (whole entry, looked up): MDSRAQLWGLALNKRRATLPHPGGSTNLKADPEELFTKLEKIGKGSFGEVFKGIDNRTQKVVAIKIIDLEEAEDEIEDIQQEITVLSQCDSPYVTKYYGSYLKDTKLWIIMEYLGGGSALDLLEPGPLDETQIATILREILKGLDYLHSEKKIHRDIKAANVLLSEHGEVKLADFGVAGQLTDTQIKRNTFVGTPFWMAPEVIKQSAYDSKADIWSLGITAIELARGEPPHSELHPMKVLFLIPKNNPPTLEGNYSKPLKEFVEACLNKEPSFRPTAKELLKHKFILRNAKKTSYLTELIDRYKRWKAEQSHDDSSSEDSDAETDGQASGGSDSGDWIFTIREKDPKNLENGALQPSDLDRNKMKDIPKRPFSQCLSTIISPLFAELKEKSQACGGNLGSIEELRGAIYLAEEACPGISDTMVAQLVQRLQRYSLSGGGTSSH
# Observed: enzyme activity
# Mode: inhibitor
# Tested at: 0.5 µM
# Relative to: control
Compound,remaining activity [%]
O=C(NC(NC(=S)Nc1ccc(F)c([N+](=O)[O-])c1)C(Cl)(Cl)Cl)C(c1ccccc1)c1ccccc1 (stereo not drawn),92.8
O=C1c2ccccc2-c2n[nH]c3cccc1c23,77.5
COc1cc2ncnc(Nc3cccc(Cl)c3)c2cc1OC,96.8
CN([C@@H](Cc1ccc(OS(=O)(=O)c2cccc3cnccc23)cc1)C(=O)N1CCN(c2ccccc2)CC1)S(=O)(=O)c1cccc2cnccc12,102
O=c1cc(-c2cccc3c2Sc2ccccc2S3)oc(N2CCOCC2)c1,97.8
Cc1cn(-c2cc(NC(=O)c3ccc(C)c(Nc4nccc(-c5cccnc5)n4)c3)cc(C(F)(F)F)c2)cn1,104
Nc1cccc(-c2cc3c(Oc4cccc(O)c4)ncnc3[nH]2)c1,64.2
N#Cc1c(NC(=O)c2cccc3ccccc23)sc2c1CCCC2,90.3
Cc1cc2ncc(-c3ccccc3)nc2cc1C,94.5
c1ccc(-c2cnc(Nc3ccc(OCCN4CCCC4)cc3)s2)cc1,99.6
O=C(Nc1cccc(Nc2nccc(Nc3cccc(C(F)(F)F)c3)n2)c1)C1CC1,98.3
CCN(CC)C(=O)c1ccc(Nc2nc(OCC3CCCCC3)c3[nH]cnc3n2)cc1,84.5

# Set 3
# Compound: COc1cc(C(=O)N2CCC(N3CCN(C)CC3)CC2)ccc1Nc1ncc2c(n1)N(C)c1ccccc1C(=O)N2C
# Technique: KINOMEscan
# Tested at: 10 µM
# Relative to: DMSO control
# Reading: lower = stronger binding
target,binding
CSNK1A1,100%
ERBB3,100%
MKK7,100%
MLK3,100%
EPHB6,31%
INSR,84%
ULK1,80%
PRKD3,42%
BMPR1A,100%
MYO3B,83%
TAOK3,24%
CAMK2G,47%

# Set 4
# SMILES: CCS(=O)(=O)c1cc2cc(C[C@@](O)(CC(C)(C)c3ccc(F)cc3C(N)=O)C(F)(F)F)[nH]c2cn1
# Observed: cell-free assay
# Technique: competition with immobilised ligand
# Tested at: 1 µM
target,remaining binding [%]
"1-phosphatidylinositol 3-phosphate 5-kinase (PIKFYVE, Homo sapiens, UniProt Q9Y2I7)",69
"Serine/threonine-protein kinase Sgk2 (SGK2, Homo sapiens, UniProt Q9HBY8)",57
"Bone morphogenetic protein receptor type-2 (BMPR2, Homo sapiens, UniProt Q13873)",91
"Serine/threonine-protein kinase pim-2 (PIM2, Homo sapiens, UniProt Q9P1W9)",99
"Tyrosine-protein kinase ABL2 (ABL2, Homo sapiens, UniProt P42684)",88
"Serine/threonine-protein kinase TAO1 (TAOK1, Homo sapiens, UniProt Q7L7X3)",73
"Serine/threonine-protein kinase MARK2 (MARK2, Homo sapiens, UniProt Q7KZI7)",100
"Phosphatidylinositol 4,5-bisphosphate 3-kinase catalytic subunit alpha isoform (PIK3CA, Homo sapiens, UniProt P42336, I800L)",70
"Serine/threonine-protein kinase 32B (STK32B, Homo sapiens, UniProt Q9NY57)",100
"Casein kinase II subunit alpha' (CSNK2A2, Homo sapiens, UniProt P19784)",83
"STE20/SPS1-related proline-alanine-rich protein kinase (STK39, Homo sapiens, UniProt Q9UEW8)",84
"Serine/threonine-protein kinase D1 (PRKD1, Homo sapiens, UniProt Q15139)",100
"Interleukin-1 receptor-associated kinase 1 (IRAK1, Homo sapiens, UniProt P51617)",80
"NUAK family SNF1-like kinase 1 (NUAK1, Homo sapiens, UniProt O60285)",77
"Dual specificity tyrosine-phosphorylation-regulated kinase 2 (DYRK2, Homo sapiens, UniProt Q92630)",83
"Myosin-IIIa (MYO3A, Homo sapiens, UniProt Q8NEV4)",80
"Mast/stem cell growth factor receptor Kit (KIT, Homo sapiens, UniProt P10721, V559D)",100

# Some of these lines once more (set 2):
Compound,remaining activity [%]
CN([C@@H](Cc1ccc(OS(=O)(=O)c2cccc3cnccc23)cc1)C(=O)N1CCN(c2ccccc2)CC1)S(=O)(=O)c1cccc2cnccc12,102
O=c1cc(-c2cccc3c2Sc2ccccc2S3)oc(N2CCOCC2)c1,97.8
Cc1cn(-c2cc(NC(=O)c3ccc(C)c(Nc4nccc(-c5cccnc5)n4)c3)cc(C(F)(F)F)c2)cn1,104
Nc1cccc(-c2cc3c(Oc4cccc(O)c4)ncnc3[nH]2)c1,64.2
